Measured values of several laboratories.
Numbered parts are unrelated; each lists some results of a single study. Positions count from the first letter of the parent shown.
UniProt Q8N5S9, sequence (whole entry, looked up): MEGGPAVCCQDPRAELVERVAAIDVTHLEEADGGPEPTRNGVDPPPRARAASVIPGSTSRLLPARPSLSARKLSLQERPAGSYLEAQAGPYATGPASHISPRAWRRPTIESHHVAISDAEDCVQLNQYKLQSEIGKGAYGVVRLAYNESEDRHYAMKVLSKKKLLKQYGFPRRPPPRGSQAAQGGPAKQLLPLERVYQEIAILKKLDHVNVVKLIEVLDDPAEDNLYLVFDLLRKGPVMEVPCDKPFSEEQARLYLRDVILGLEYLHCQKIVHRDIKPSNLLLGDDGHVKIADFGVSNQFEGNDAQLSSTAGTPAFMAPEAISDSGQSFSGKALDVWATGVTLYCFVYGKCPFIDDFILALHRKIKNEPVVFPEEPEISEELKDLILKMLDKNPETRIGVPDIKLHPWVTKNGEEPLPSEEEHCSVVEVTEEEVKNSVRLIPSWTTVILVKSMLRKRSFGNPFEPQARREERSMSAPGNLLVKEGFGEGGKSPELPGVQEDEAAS
UniProt P42336, sequence (whole entry, unmodified, looked up): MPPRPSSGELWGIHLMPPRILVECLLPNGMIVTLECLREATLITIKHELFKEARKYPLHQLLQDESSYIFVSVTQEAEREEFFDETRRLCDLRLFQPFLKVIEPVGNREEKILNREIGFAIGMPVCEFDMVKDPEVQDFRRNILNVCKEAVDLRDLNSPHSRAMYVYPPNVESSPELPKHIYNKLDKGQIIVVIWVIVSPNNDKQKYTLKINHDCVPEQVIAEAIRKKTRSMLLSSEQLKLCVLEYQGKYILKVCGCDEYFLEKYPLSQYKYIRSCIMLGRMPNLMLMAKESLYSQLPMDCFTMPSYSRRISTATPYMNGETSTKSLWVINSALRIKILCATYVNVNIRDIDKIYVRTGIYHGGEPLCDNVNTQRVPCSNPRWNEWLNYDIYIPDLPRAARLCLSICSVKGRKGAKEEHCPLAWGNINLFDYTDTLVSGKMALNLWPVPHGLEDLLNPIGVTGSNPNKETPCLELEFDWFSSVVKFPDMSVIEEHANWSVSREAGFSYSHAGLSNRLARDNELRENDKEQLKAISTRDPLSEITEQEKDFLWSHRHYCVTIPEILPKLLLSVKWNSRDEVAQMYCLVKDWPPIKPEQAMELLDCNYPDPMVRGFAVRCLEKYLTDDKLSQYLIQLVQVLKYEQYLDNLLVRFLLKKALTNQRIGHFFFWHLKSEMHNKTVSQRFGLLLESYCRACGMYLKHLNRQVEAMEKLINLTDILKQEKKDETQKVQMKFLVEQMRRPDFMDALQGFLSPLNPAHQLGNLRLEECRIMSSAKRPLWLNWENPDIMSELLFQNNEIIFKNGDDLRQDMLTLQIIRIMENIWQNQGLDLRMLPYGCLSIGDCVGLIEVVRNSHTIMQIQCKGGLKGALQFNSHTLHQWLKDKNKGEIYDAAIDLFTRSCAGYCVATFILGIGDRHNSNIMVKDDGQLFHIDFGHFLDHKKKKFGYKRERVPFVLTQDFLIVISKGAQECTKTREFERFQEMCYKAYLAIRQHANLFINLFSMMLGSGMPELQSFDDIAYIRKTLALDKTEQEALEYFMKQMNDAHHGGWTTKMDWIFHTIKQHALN
UniProt P08069, sequence (whole entry, looked up): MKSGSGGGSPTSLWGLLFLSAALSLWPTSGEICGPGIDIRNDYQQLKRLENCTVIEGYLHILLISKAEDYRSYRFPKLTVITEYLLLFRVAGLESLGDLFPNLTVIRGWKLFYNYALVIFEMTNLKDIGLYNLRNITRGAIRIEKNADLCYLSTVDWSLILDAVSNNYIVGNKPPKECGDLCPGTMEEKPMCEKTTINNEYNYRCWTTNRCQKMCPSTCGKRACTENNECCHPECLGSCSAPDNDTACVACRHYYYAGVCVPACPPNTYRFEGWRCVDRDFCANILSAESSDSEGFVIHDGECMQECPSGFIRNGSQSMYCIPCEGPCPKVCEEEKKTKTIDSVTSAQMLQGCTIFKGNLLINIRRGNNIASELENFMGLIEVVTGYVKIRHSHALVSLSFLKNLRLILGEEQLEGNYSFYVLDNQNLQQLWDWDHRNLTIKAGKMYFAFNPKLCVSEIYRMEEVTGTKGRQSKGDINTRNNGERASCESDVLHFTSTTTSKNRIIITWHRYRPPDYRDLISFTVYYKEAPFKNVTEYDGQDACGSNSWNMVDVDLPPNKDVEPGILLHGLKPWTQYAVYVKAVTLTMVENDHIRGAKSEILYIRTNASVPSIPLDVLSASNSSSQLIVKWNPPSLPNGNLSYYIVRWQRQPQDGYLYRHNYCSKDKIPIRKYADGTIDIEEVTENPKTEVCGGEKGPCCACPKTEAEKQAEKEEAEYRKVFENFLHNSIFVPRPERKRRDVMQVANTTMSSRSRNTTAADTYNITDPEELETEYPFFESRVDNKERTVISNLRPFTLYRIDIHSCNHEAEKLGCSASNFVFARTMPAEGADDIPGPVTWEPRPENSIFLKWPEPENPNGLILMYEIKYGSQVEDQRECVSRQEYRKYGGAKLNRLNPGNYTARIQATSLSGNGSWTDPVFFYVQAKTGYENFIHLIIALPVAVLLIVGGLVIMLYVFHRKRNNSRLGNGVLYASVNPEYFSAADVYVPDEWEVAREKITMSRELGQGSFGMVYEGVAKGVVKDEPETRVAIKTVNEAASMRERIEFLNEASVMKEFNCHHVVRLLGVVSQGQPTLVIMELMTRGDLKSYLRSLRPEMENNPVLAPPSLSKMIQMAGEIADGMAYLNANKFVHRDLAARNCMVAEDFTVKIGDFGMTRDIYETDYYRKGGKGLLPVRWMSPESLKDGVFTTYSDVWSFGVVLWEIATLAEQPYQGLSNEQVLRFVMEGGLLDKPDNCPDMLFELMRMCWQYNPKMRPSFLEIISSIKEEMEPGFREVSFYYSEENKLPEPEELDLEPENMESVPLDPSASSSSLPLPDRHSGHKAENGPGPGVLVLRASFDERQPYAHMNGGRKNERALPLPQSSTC
UniProt P31749, sequence (whole entry, looked up): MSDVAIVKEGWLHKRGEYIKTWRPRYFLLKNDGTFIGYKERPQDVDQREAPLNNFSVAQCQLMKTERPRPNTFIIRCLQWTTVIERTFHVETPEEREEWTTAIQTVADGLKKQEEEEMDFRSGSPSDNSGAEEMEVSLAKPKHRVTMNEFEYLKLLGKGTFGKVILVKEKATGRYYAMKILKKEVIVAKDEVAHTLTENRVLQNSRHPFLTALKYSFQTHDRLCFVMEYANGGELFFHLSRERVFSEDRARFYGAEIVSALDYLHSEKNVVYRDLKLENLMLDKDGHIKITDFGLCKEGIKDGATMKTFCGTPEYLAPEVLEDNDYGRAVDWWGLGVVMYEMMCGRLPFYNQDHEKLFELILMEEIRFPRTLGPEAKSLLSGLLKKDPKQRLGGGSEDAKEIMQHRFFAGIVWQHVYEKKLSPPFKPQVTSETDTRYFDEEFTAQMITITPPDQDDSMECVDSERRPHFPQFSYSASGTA
UniProt O43318, sequence (whole entry, looked up): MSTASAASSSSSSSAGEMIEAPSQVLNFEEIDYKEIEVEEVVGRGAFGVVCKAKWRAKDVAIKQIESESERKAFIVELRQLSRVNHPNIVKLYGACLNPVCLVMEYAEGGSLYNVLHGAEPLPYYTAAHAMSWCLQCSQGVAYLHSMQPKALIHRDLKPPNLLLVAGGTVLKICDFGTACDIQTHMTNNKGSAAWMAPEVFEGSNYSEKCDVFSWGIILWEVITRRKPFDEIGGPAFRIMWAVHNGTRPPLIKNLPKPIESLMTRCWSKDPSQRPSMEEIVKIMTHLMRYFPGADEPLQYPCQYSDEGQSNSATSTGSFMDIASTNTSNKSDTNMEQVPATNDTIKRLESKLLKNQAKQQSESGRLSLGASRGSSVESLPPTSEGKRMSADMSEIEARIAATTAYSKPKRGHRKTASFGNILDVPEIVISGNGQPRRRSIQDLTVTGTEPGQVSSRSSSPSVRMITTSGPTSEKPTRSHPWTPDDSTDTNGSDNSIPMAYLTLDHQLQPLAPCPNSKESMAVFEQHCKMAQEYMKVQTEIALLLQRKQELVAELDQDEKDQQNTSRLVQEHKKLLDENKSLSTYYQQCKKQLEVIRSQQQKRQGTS

Series 1 — observed: cell-free assay; method: competition with immobilised ligand; tested at: 1 µM; quantity: remaining binding
SMILES: O=C(O)[C@H]1[C@H](Cn2nnc3ccccc3c2=O)CC[C@@H]1C(=O)c1ccc(OCCC2CCOCC2)cc1
target = TYRO3 (Homo sapiens, UniProt Q06418); result = 100%
target = AKT1 (Homo sapiens, UniProt P31749); result = 83%
target = CAMKK1 (Homo sapiens, UniProt Q8N5S9); result = 81%
target = MAP3K7 (Homo sapiens, UniProt O43318); result = 100%
target = IGF1R (Homo sapiens, UniProt P08069); result = 100%
target = PIK3CA (Homo sapiens, UniProt P42336, E542K); result = 71%

Series 2 — observed: enzyme activity; mode: inhibitor; tested at: 0.5 µM; relative to: control; quantity: remaining activity
Target: Serine/threonine-protein kinase MARK2 (MARK2, Homo sapiens, UniProt Q7KZI7)
Construct (Q7KZI7 1-788): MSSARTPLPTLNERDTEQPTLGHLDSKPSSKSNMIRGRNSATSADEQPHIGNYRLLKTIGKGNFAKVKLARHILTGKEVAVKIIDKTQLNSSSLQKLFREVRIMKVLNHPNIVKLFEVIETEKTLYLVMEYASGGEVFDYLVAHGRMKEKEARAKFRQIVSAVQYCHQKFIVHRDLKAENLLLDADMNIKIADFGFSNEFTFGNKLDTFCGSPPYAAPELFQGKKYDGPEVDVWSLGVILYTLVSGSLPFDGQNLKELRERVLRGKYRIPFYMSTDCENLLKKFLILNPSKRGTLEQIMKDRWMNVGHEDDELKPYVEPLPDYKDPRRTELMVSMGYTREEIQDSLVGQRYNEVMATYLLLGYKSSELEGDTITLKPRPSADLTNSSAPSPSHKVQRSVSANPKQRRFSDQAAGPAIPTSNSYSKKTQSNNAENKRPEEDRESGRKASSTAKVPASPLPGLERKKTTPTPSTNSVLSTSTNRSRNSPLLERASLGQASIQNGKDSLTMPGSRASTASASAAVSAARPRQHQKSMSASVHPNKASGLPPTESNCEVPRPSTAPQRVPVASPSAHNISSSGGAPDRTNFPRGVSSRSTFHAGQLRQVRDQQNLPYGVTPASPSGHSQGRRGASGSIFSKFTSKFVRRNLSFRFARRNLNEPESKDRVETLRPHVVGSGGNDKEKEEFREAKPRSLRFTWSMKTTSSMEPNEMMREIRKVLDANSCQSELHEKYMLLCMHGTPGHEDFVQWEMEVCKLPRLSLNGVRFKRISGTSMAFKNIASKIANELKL
Compound = COc1cc2nccc(Oc3ccc(NC(=S)NC(=O)c4ccccc4C)cc3)c2cc1OC; result = 82.3%
Compound = Cn1sc(=O)n(Cc2ccccc2)c1=O; result = 118%
Compound = CNC(=O)c1cc(Oc2ccc(NC(=O)Nc3ccc(Cl)c(C(F)(F)F)c3)cc2)ccn1; result = 94.9%
Compound = COc1ccc(C(=O)Nc2sc3c(c2C(N)=O)CCCC3)cc1OC; result = 98.7%
Compound = C#Cc1cccc(Nc2ncnc3cc(OCCOC)c(OCCOC)cc23)c1; result = 129%
Compound = Cc1cccc(-c2[nH]c(C(C)(C)C)nc2-c2ccc3c(c2)OCO3)n1; result = 90%
Compound = OCC(O)CCON=C1C(c2c(O)[nH]c3ccccc23)=Nc2ccccc21 (centres unmarked); result = 57.4%
Compound = O=C1NC(=O)C(c2cn(CCCn3ccnc3)c3ccccc23)=C1Nc1ccccc1; result = 97.1%
Compound = O=c1c2ccccc2[nH]c(=S)n1CCN1CCC(=C(c2ccc(F)cc2)c2ccc(F)cc2)CC1; result = 108%
Compound = Cc1nc(-c2ccccc2)c(-c2ccncc2)o1; result = 94.3%
Compound = NCCNc1ncc(C(N)=O)c(Nc2cccc(C(F)(F)F)c2)n1; result = 78.9%
Compound = COc1cc2ncnc(Nc3ccc(Oc4ccccc4)cc3)c2cc1OC; result = 95.3%
Compound = Cn1c2ccccc2c2c3c(c4c5ccccc5n(CCC#N)c4c21)CNC3=O; result = 11.8%

Series 3 — method: DHFR PCA, dose-response; medium: yeast; setting: Hill fit, mean, not affinity; together with: (+)-ABA, dose series; reading: lower = more sensitive; quantity: ABA EC50
Target: ABI1, truncated, D143A, DHFR fusion (Arabidopsis thaliana, UniProt P49597)
Starting sequence: PYL1, truncated, DHFR fusion (Arabidopsis thaliana, UniProt Q8VZS8); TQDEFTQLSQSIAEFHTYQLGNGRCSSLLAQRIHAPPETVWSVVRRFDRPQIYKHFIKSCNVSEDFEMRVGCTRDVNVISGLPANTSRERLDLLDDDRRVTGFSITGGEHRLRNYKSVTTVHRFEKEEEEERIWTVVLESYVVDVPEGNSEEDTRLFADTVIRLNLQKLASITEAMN
Substitution = S63E; result = 2.19 µM
Substitution = N77G; result = 4.29 µM
Substitution = Q10A; result = 1.21 µM
Substitution = N85W; result = 7.48 µM
Substitution = K58I; result = 71.2 µM
Substitution = L93S; result = 19.2 µM
Substitution = D97K; result = 2.28 µM
Substitution = L156T; result = 0.527 µM

Series 4 — method: universal PBM; molecule type: double-stranded DNA, one strand shown; medium: in vitro; tested at: 600 nM; reading: higher = stronger binding; quantity: E-score
Target: Sal-like protein 4, full length isoform A (SALL4, Homo sapiens, UniProt Q9UJQ4, residues 1-1053)
UniProt Q9UJQ4, sequence (whole entry, looked up): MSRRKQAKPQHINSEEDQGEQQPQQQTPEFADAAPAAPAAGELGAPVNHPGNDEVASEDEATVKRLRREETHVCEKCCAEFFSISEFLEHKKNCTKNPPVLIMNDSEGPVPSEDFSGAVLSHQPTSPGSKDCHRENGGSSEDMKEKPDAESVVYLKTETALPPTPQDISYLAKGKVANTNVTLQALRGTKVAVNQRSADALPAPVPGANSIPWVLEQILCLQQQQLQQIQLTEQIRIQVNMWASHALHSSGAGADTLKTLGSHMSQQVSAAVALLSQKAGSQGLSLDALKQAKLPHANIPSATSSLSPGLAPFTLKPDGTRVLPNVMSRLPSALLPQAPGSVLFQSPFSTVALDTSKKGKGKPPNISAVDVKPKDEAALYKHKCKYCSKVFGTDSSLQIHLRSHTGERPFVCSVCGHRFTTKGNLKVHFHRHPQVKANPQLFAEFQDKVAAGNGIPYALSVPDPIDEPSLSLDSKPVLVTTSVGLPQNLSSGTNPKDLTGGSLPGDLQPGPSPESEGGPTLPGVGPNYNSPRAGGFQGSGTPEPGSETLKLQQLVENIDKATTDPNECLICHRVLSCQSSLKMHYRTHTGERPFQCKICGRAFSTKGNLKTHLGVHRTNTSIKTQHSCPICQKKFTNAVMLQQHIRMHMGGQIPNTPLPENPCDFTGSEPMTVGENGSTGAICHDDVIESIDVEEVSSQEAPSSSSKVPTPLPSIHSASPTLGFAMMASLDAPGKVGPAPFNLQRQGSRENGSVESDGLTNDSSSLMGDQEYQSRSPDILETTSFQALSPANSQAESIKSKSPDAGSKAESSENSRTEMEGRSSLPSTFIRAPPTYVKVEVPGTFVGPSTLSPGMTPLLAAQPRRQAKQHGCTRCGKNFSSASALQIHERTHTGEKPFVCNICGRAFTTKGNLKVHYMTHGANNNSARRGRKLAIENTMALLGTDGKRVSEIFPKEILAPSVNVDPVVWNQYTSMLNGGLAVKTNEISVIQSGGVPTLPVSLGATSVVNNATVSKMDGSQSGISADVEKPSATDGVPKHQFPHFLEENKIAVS
Setting: 8-mer, flanks averaged, mean of replicates
Sequence = GTCCGAAA; result = 0.0681
Sequence = CAATAACG; result = 0.32
Sequence = GCTGCTTA; result = -0.0517
Sequence = AAGATCAA; result = 0.141
Sequence = CGAATTAA; result = 0.212
Sequence = GACTGTAA; result = 0.126
Sequence = GCGAGAAA; result = 0.0326
Sequence = CCGGGTTA; result = -0.276

Some of these lines once more (series 2):
Compound = Cn1c2ccccc2c2c3c(c4c5ccccc5n(CCC#N)c4c21)CNC3=O; result = 11.8%
Compound = NCCNc1ncc(C(N)=O)c(Nc2cccc(C(F)(F)F)c2)n1; result = 78.9%
Compound = C#Cc1cccc(Nc2ncnc3cc(OCCOC)c(OCCOC)cc23)c1; result = 129%
Compound = COc1cc2ncnc(Nc3ccc(Oc4ccccc4)cc3)c2cc1OC; result = 95.3%
Compound = COc1ccc(C(=O)Nc2sc3c(c2C(N)=O)CCCC3)cc1OC; result = 98.7%
Compound = CNC(=O)c1cc(Oc2ccc(NC(=O)Nc3ccc(Cl)c(C(F)(F)F)c3)cc2)ccn1; result = 94.9%
